Assay results pooled from the literature.
Protocols differ between the studies behind these lines. ± marks the error that the study gave.
Sequence of UniProt Q9Y5T5 (whole entry, looked up): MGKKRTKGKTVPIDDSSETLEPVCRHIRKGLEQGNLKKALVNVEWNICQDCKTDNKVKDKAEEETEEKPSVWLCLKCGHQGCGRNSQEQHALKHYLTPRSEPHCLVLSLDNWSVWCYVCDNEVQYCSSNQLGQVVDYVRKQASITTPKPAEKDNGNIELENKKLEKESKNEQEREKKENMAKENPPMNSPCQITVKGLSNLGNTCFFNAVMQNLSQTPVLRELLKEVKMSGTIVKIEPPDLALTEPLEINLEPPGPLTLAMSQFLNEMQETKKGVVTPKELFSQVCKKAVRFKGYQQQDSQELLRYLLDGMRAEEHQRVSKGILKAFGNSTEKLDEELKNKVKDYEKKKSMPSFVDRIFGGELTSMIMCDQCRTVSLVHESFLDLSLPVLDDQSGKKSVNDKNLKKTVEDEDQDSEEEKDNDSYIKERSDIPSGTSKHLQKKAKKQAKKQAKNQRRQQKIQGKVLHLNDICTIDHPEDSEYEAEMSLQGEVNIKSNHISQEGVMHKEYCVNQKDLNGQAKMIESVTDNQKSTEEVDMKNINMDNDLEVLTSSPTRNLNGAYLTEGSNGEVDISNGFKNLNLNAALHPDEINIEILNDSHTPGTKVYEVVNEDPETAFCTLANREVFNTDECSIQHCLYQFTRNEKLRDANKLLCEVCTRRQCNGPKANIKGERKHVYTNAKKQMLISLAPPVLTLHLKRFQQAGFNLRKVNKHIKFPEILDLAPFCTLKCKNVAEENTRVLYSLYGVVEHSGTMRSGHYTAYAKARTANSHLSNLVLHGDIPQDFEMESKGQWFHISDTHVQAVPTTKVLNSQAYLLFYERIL

SMILES | target or system | assay | system | conditions | scale | measurement | value
N#Cc1ccc2c(c1)[C@H]1CCCN(C(=O)c3ccc4[nH]cnc4c3)[C@H]1C2 |  |  | human | 40 mg, end of trial |  | median ACTH level | 4.5 pmol/L
CC(C)(C)c1ccc(O)c(CN(Cc2cc(C(C)(C)C)ccc2O)C2CCC(NC(N)=O)CC2)c1 (centres unmarked) |  |  | C57BL/6 mouse, male, brain | oral, 10 mg/kg |  | dose-normalised Cmax | 55 ng/g per mg/kg
O=C1CCc2ccc(OCCCCN3CCN(c4cccc(Cl)c4Cl)CC3)cc2N1 |  | refers to: Xerostomia | genotyped patients, CYP2D6 poor metabolizers | dose not given, long-acting oral or depot |  | adverse event incidence | 11%
O=C(Cc1ccc2ccccc2c1)Nc1cc(C2CCC2)[nH]n1 |  |  | mouse plasma | 0.5 ng/mL, 8 h, ambient temperature, bench-top stability |  | accuracy | 101%
CN(C(=O)n1cnc(-c2cccnc2)c1)C1CCCCC1 |  |  | Wistar rat, pons | oral, 10 mg/kg/day of BIA 10-2474, 72 h, repeated 5 days |  | concentration | 8 ± 0.2 ng/g
CN(C(=O)n1cnc(-c2ccc[n+]([O-])c2)c1)C1CCCCC1 |  |  | cynomolgus monkey, male, plasma | oral, 1.0 mg/kg |  | Tmax | 2 h
CCn1cc(-c2cc(Cn3ccoc3=N)cc3c2CCN([C@@H](C)c2cc(OC)ccn2)C3=O)c(C(F)(F)F)n1 | HARA | cell growth |  | 120 h |  | EC50 | 2.38 µM
CN[C@@H]1COc2c(S(=O)(=O)NC(=O)Nc3c4c(cc5c3CCC5)CCC4)cnn2C1 |  |  | human, urine | oral, 450 mg, 0-48 h |  | renal clearance | 10.1 mL/min
CCN1CCN(Cc2ccc(Nc3ncc(F)c(-c4cc(F)c5nc(C)n(C(C)C)c5c4)n3)nc2)CC1 |  |  | healthy human, fasted | oral, 150 mg, 3 x 50 mg tablets |  | Vss/F | 1720 L
NC(=O)c1cc(-n2c(CCC(=O)O)nc3ccccc32)cs1 | Ubiquitin carboxyl-terminal hydrolase 16, ZnF-UBD domain (USP16, Homo sapiens, UniProt Q9Y5T5) |  |  |  |  | Kd | > 1000 µM
O=C(O)CCC(=O)O.[2H]C([2H])([2H])Oc1cc(C)c2[nH]ccc2c1CN1CC[C@@H](C2CC2)C[C@H]1c1ccc(C(=O)O)cc1 |  | multiple ascending dose | healthy Chinese subjects | 300 mg once daily |  | subjects with elevated AST TEAE | 0%
Cc1c(-c2ccc(N3CCc4cccc(C(=O)Nc5nc6ccccc6s5)c4C3)nc2C(=O)O)cnn1CC12CC3(C)CC(C)(C1)CC(OCCNCC[C@H](O)CO)(C3)C2 |  |  | beagle dog, male, anaesthetised | intravenous infusion, 0.3 mg/kg/min, 75 (unit not given) | reference: vehicle | heart rate change | -10%
CNC(=O)c1ccc(-c2cnc3ncc(Cc4ccc5ncccc5c4)n3n2)cc1F |  | refers to: Pyrexia, all grades | cancer patients | oral, 600 mg twice daily, expansion cohort, any causality |  | patients with adverse event | 11%
N=C(N)NCCNC(=O)C1(Nc2ccccc2)CCN(Cc2ccccc2)CC1 |  |  | male Sprague-Dawley rats, plasma | intravenous, 2.5 mg/kg |  | volume of distribution | 1.2 ± 0.3 L
COc1cc(C(=O)NC2CCN(C)CC2)c(F)cc1Nc1ncc(C(F)(F)F)c(Oc2cccc3c2C(=O)N(C)C3)n1 |  |  | human patients, plasma | oral, 300 mg once daily repeated, geometric mean |  | dose-normalised Cmax at steady state | 16.9 nmol/L per mg
COc1ccc2[nH]c([S@+]([O-])Cc3ncc(CO)c(OC)c3C)nc2c1 |  |  | human, dried plasma spots | dose not given, mean, with: fluvoxamine and voriconazole | reference: inhibition over control | AUC fold change | 0.81 fold
COc1cc(Nc2ncc3c(n2)-c2ccc(Cl)cc2C(c2c(F)cccc2OC)=NC3)ccc1C(=O)O |  | refers to: Alopecia, grade 1 | cancer patients, phase 1/2 | oral, dose not given, with: pembrolizumab |  | patients with adverse event | 17%
Cc1noc(C)c1Cn1cc(N2C(=O)CN(Cc3cccc(O)c3)C2=O)cn1 |  |  | pooled human liver microsomes | 1 µM, 10 min, pH 7.4 |  | remaining parent | 73 % peak area
C=CCn1c(=O)c2cnc(Nc3ccc(N4CCN(C)CC4)cc3)nc2n1-c1cccc(C(C)(C)O)n1 |  |  | human | oral, 175 mg twice daily, cycle 1 day 17, with: durvalumab 1500 mg IV | median | Tmax | 2.1 h
CCCCOC(=O)N1CCN(C(=O)[C@H](CP(=O)(O)O)NC(=O)c2cc(N3CC[C@H](OC)C3)nc(-c3ccccc3)n2)CC1 |  | refers to: alkaline phosphatase | human, serum | 16 mg, 24 h post-dose |  | change from baseline | -0.5 ± 5.4 U/L
CN1CC(=O)N2[C@H](c3ccc4c(c3)OCO4)c3[nH]c4ccccc4c3C[C@@H]2C1=O |  |  | human plasma | 400 ng/mL, freeze-thaw at -70 °C |  | accuracy | 99.4%
Cn1cc(Nc2nccc(-c3ccc4c(c3)CN(C3COC3)CC[C@H]4NC(=O)c3cn(C(C)(C)C)nn3)n2)cn1 |  |  | human, whole blood | 50 mg twice daily, day 7 | reference: pre-dose baseline | granulocyte count change | 8.41%

SMILES | target or system | assay | system | conditions | scale | measurement | value
NC1(C(=O)N[C@@H](CCO)c2ccc(Cl)cc2)CCN(c2nc[nH]c3nccc2-3)CC1 |  |  | metastatic CRPC patients | 320 mg b.i.d., grade 3 to 4, treatment-related, with: enzalutamide 160 mg daily |  | incidence of Nausea | 0%
CC(C)[C@H](C(=O)Nc1ccc(C(=O)NO)cc1)c1ccccc1 |  |  | whole blood | 100 ng/mL, 1 h, 4 °C, stability on ice |  | accuracy | 109%
CN(C)c1ncnc2nc[nH]c12 |  | binding, MIDAS equilibrium dialysis LC-MS | A2AR-BRIL thermostabilized | concentration not given | reference: no-protein control | log2 fold change | 3.7
O=C(Nc1cnccc1Cl)N1CCN(Cc2ccc3c(c2)OC(F)(F)O3)CC1 |  | refers to: Ecchymosis | human healthy young women | 100 mg, multiple dose |  | adverse event incidence | 0%
CC(C)(Sc1ccncc1-c1ccc(C#N)c2ccccc12)C(=O)O |  |  | human, urine | oral, 2.5 mg, with: febuxostat 10 mg |  | amount excreted in urine (0-24 h) | 31.6 µg
C[C@@H](Nc1cc(F)cc(F)c1)c1cc(C(=O)N(C)C)cc2c(=O)cc(N3CCOCC3)oc12 |  | refers to: Pain | advanced solid tumour patients | oral, dose not given, dose expansion |  | related serious adverse events | 0%
CCC(=O)N(CCC(c1ccc2c(c1)OCO2)c1ccccc1OC)Cc1ccccc1 (centres unmarked) |  |  | female athymic nude mouse, blood | i.p., 60 mg/kg twice daily, 14 days, group mean |  | DBIL | 0 mg/dL
Cn1cc(-c2ccc(-c3cncc(Cl)c3N3CCC4(CCNC4=O)CC3)cc2)cn1 | COLO 205 | microarray, refers to: DBI |  | concentration not given, 6 h | reference: untreated cells | fold change in expression | -1.55
NC(=O)c1cc(Oc2ccc(NC(=O)Nc3ccc(Cl)c(C(F)(F)F)c3)c(F)c2)cc[n+]1[O-] |  | long-term stability | mouse plasma | 75 ng/mL, 6 months, -80 °C |  | accuracy | 104%
CNCCOC12CC3(C)CC(C)(CC(Cn4ncc(-c5ccc(N6CCc7cccc(C(=O)Nc8nc9ccccc9s8)c7C6)nc5C(=O)O)c4C)(C3)C1)C2 |  |  | anaesthetised male beagle dogs | intravenous bolus, 0.03 mg/kg, 105 min | reference: baseline | systemic vascular resistance change | 67%
C=CCN1CC(=O)N2[C@@H](Cc3ccc(O)cc3F)C(=O)N(Cc3cccc(N4CC(N5CCN(CC)CC5)C4)n3)C[C@@H]2N1C(=O)NCc1ccccc1 |  | refers to: Vomiting | advanced solid tumour patients | oral, 120 mg twice daily, expansion part, grade ≥3 |  | treatment-related adverse events | 0%
FC(F)(F)c1ccc(CNc2ccc(Cc3c[nH]c4ncc(Cl)cc34)cn2)cn1 |  | refers to: Dizziness | patients with advanced solid tumours, all cohorts | oral, 1000 mg/day, any grade |  | treatment-related adverse events | 4%
NC(=O)c1cccnc1 |  | binding, MIDAS equilibrium dialysis LC-MS | A2AR-BRIL thermostabilized | concentration not given | reference: no-protein control | log2 fold change | -0.158
CCn1cc(C(=O)N2CCOCC2)c(=O)c2cc(NC3Cc4ccccc4C3)cnc21 |  |  | human, fasted | oral suspension, 1200 mg single dose, arithmetic mean |  | AUC(0-last) | 6130 ng·h/mL
c1ccc2c(c1)ccc1ccccc12 |  |  | PDMS-water partitioning | PAH compilation |  | literature range of log K | 3.7 to 4.51 log units
O=C(O)C1=CO[C@@H](O[C@@H]2O[C@H](CO)[C@@H](O)[C@H](O)[C@H]2O)[C@@H]2C(CO)=CC[C@H]12 |  | three freeze-thaw cycles | rat plasma | 8 ng/mL, -70 °C freeze |  | accuracy | 108%
Cc1coc([C@H]2C[C@H]3[C@@H](CF)SC(N)=N[C@@]3(c3ccc(F)cc3F)CO2)n1 |  |  | male 129/SVE mouse, brain | subcutaneous, 80 mg/kg, 5 h |  | brain concentration | 618 nM
CCc1cc(C(=O)NC)c2nccc(N3CCc4c(cc(Cn5ccnc5)cc4-c4cn(C)nc4C(F)(F)F)C3=O)c2c1 |  |  | Sprague Dawley rats | oral, 50 mg/kg once daily, 7 days | reference: vehicle | serum cholesterol change | -0.9%
Cc1ccc([C@@H]2O[C@H](CO)[C@@H](O)[C@H](O)[C@H]2O)cc1Cc1ccc(-c2ccc(F)cc2)s1 |  |  | Japanese type 2 diabetes patients | 200 mg, day 6, 24 h urine collection | reference: baseline | urinary calcium excretion change | -40 mg
COc1cccc(OC)c1-c1cc(C(=O)NC2(C(=O)O)C3CC4CC(C3)CC2C4)nn1-c1ccc(C(=O)N(C)CCCN(C)CCCN(C)C(=O)CN2CCN(CC(=O)[O-])CCN(CC(=O)[O-])CCN(CC(=O)[O-])CC2)cc1C(C)C.[177Lu+3] (centres unmarked) |  |  | mouse, HT-29 xenograft | 72 h post injection, biodistribution | reference: tumour over blood uptake | tumour-to-blood ratio | 59.8
COC(=O)C1=CO[C@@H](O[C@@H]2O[C@H](CO)[C@@H](O)[C@H](O)[C@H]2O)[C@@H]2C(CO)=CC[C@H]12 |  | post-procedure stability | rat plasma | 8 ng/mL, 3 h, room temperature |  | accuracy | 102%
O=C(Nc1nc2cccc(-c3ccc(CN4CCS(=O)(=O)CC4)cc3)n2n1)C1CC1 |  |  | rheumatoid arthritis patients | oral, 100 mg twice daily, 4 weeks, TEAE regardless of relatedness |  | patients with Headache | 8.3%

Repeated from above:
SMILES | target or system | assay | system | conditions | scale | measurement | value
FC(F)(F)c1ccc(CNc2ccc(Cc3c[nH]c4ncc(Cl)cc34)cn2)cn1 |  | refers to: Dizziness | patients with advanced solid tumours, all cohorts | oral, 1000 mg/day, any grade |  | treatment-related adverse events | 4%
NC(=O)c1cccnc1 |  | binding, MIDAS equilibrium dialysis LC-MS | A2AR-BRIL thermostabilized | concentration not given | reference: no-protein control | log2 fold change | -0.158
CCn1cc(C(=O)N2CCOCC2)c(=O)c2cc(NC3Cc4ccccc4C3)cnc21 |  |  | human, fasted | oral suspension, 1200 mg single dose, arithmetic mean |  | AUC(0-last) | 6130 ng·h/mL
c1ccc2c(c1)ccc1ccccc12 |  |  | PDMS-water partitioning | PAH compilation |  | literature range of log K | 3.7 to 4.51 log units
O=C(O)C1=CO[C@@H](O[C@@H]2O[C@H](CO)[C@@H](O)[C@H](O)[C@H]2O)[C@@H]2C(CO)=CC[C@H]12 |  | three freeze-thaw cycles | rat plasma | 8 ng/mL, -70 °C freeze |  | accuracy | 108%
Cc1coc([C@H]2C[C@H]3[C@@H](CF)SC(N)=N[C@@]3(c3ccc(F)cc3F)CO2)n1 |  |  | male 129/SVE mouse, brain | subcutaneous, 80 mg/kg, 5 h |  | brain concentration | 618 nM
CCc1cc(C(=O)NC)c2nccc(N3CCc4c(cc(Cn5ccnc5)cc4-c4cn(C)nc4C(F)(F)F)C3=O)c2c1 |  |  | Sprague Dawley rats | oral, 50 mg/kg once daily, 7 days | reference: vehicle | serum cholesterol change | -0.9%
